Published values from different studies.
Lines come from different studies, so protocols differ. “And” joins repeats or separate records; there may be more than shown. Numbers after ± are the reported error.

C=CC(=O)N1CCC([C@@H]2CCNc3c(C(N)=O)c(-c4ccc(Oc5ccccc5)cc4)nn32)CC1
AUC(0-inf) fold change (Sprague-Dawley rat; oral, dose not given, with: posaconazole; relative to: alone): 0.98 fold

COc1cc2nccc(Oc3ccc(NC(=O)NC4CC4)c(Cl)c3)c2cc1C(N)=O
AUC(0-inf) increase (Sprague-Dawley rats male, plasma; oral, dose not given, with: posaconazole; relative to: without posaconazole): 94.3%

COC(=O)C1=CO[C@@H](O[C@@H]2O[C@H](CO)[C@@H](O)[C@H](O)[C@H]2O)[C@@H]2C(CO)=CC[C@H]12
AUC(0-inf) decrease (rat, plasma; oral, dose not given, dosed as combined Eu and Pc extracts; relative to: single extracts): 135000 ± 64200 ng·h/mL

C=CC(=O)N1CCC(Oc2cc3c(Nc4ccc(Cl)c(Cl)c4F)ncnc3cc2OC)CC1
AUC(0-inf) ratio (Sprague-Dawley rat male, plasma; oral, 2 mg/kg, with: schisandrin A 20 mg/kg daily 1 weeks pretreatment; relative to: no pretreatment): 0.79 fold

CCc1cc(C(=O)NC)c2nccc(N3CCc4c(cc(Cn5ccnc5)cc4-c4cn(C)nc4C(F)(F)F)C3=O)c2c1
AUC(0-inf) (Sprague Dawley rat, male, plasma; oral, 100 mg/kg once daily, 7 days, toxicokinetic satellite group): 53300 ng·h/mL

Cc1cccc(CNC(=O)c2cn(CCNC(=O)c3ccccc3Sc3c([N+](=O)[O-])ncn3C)c3cc4c(cc3c2=O)OC(F)(F)O4)n1
AUC(0-inf) (Sprague-Dawley rat, male, whole blood; intramuscular, 10 mg/kg): 109 ng·h/mL

O=C(O)C1=CO[C@@H](O[C@@H]2O[C@H](CO)[C@@H](O)[C@H](O)[C@H]2O)[C@@H]2C(CO)=CC[C@H]12
AUC(0-inf) increase (Sprague-Dawley rat, internal jugular vein plasma; oral, dose not given, dosed as combined Eu and Pc extracts; relative to: Eu extract alone): 401000 ± 312000 ng·h/mL

CCc1c(-c2ccccc2)c(-c2ccccc2)nn1-c1ccccc1-c1cccc(OCC(=O)O)c1
AUC(0-inf) observed (Sprague-Dawley rat; intravenous, dose not given): 3310 ng·h/mL and 2410 ng·h/mL and 3120 ng·h/mL

CSc1ccccc1C(=O)NCCn1cc(C(=O)NCc2cccc(C)n2)c(=O)c2cc3c(cc21)OC(F)(F)O3
AUC(0-inf) (Sprague-Dawley rat, male, plasma; intravenous, 20 mg/kg of parent drug): 1140 ± 35.3 ng·h/mL

CNC(=O)c1cccc(-c2ccc(O[C@H]3O[C@H](CO)[C@@H](O)[C@H](O)[C@@H]3O)c(C)c2)c1
AUC(0-inf) (Sprague-Dawley rat, male, plasma; oral, 10 mg/kg): 16 ng·h/mL

Cc1cccc(CNC(=O)c2cn(CCNC(=O)c3ccccc3S)c3cc4c(cc3c2=O)OC(F)(F)O4)n1
AUC(0-inf) (Sprague-Dawley rat, male, whole blood; intramuscular, 30 mg/kg of parent compound): 8880 ng·h/mL

C1=C/COCc2cc(ccc2OCCN2CCCC2)Nc2nccc(n2)-c2cccc(c2)COC/1
AUC(0-inf) (Sprague-Dawley rats, male, plasma; oral, dose not given, with: voriconazole; relative to: vehicle control): 27 % increase

Excerpt of the above:
CCc1cc(C(=O)NC)c2nccc(N3CCc4c(cc(Cn5ccnc5)cc4-c4cn(C)nc4C(F)(F)F)C3=O)c2c1
AUC(0-inf) (Sprague Dawley rat, male, plasma; oral, 100 mg/kg once daily, 7 days, toxicokinetic satellite group): 53300 ng·h/mL
